Results gathered from unrelated publications.
Each line is one published result; not all experiments were run side by side. Several values in a cell are separate wells, animals, samples, runs or records. ± marks the error that the study gave.

| SMILES | target or system | assay | system | conditions | how to read | quantity | value |
| --- | --- | --- | --- | --- | --- | --- | --- |
| Cn1ncc2cc(-c3cncc(Cl)c3N3CCC4(CCNC4=O)CC3)ccc21 | LS174T | gene expression, microarray, measured: EMP1 mRNA | – | concentration not given, 4 h | reference: untreated cells | log2 fold change | 2.92 |
| CCN(CC)CC(=O)Nc1cccc(-n2cc(-c3ccc4ccc(-c5cn(-c6cccc(NC(=O)CN(CC)CC)c6)nn5)cc4c3)nn2)c1 | RCC4 | PCR angiogenesis array, measured: VEGFB | – | 5 x IC50, 6 h, normoxia | reference: untreated | fold regulation | 1.05 fold |
| CC(C)(C)NCC(SS(=O)(=O)O)c1ccccc1 (centres unmarked) | Schistosoma mansoni | – | infected mice | 400 mg/kg single, day 42, perfusion day 56 | reference: vehicle | male worm burden reduction | 74% |
| Cc1cccc(NC(=O)CCN2CCN(C/C=C/c3ccccc3)CC2)c1 | – | – | zebrafish larvae, 7 dpf | 10 µM, minute 6 | – | larval motion | 6.8 ± 0.8 pixels/frame |
| CC(C)c1ccc(N(C)c2ccc3c(c2)OCC[C@H]3CNc2cnccc2C(=O)O)cc1 | SNU668 | cell growth or viability, ATP luminescence | – | 7 days | – | IC50 | 18.9 nM |
| CN(C)C(=O)c1ccnc(N2Cc3cn(Cc4ccc(F)cc4F)nc3C2)n1 | – | – | mouse, hippocampal slice, Schaffer collaterals | dose not given, interstimulus interval 400 | reference: second over first response | paired-pulse ratio | 1.56 and 1.25 and 1.09 and 1.1 and 1.46 and 1.24 and 1.18 |
| CCN(C(=O)c1cc(F)ccc1Oc1nncnc1N1CCC2(C1)CN([C@H](CCCN(C)CCOC)C(C)C)C2)C(C)C | SK-N-SH | cell growth | – | 168 h | – | GI50 | > 10000 nM |
| CC(=O)[O-].O.O.O.O.[Co+2].[O-]c1ccc(Br)cc1C=NCCN1CCOCC1 | – | nitric oxide scavenging | – | 160 µM | – | inhibition | 34.4% |
| C=C(NC(=O)c1csc(-c2nc3c(cc2O)-c2nc(cs2)C(=O)NC(C(C)O)C(=O)NC(=C(C)OC)c2nc(cs2)C(=O)NC2c4nc(cs4)C(=O)NC(COC(=O)c4c5c6c(cccc6n4O)COC(=O)C(OC4CC(C)(O)C(N(C)C)C(C)O4)C2OC5)c2nc-3cs2)n1)C(N)=O (centres unmarked) | Streptococcus pneumoniae | – | -25, immunocompromised mice, lung | 8 mg/kg/day once daily, 24 h post-dose | – | lung bacterial load | 4.4 log10 CFU/lung |
| CNS(=O)(=O)Nc1nccc(Cc2c(C)c3ccc(Oc4ncccc4F)cc3oc2=O)c1F | PL-21 | cell viability | – | 7 days | – | IC50 | 1.17 nM |
| C=CC(=O)Nc1cccc(Cn2ncc3cnc(Nc4cnn(CCOC)c4)nc32)c1 | HIPK4 human | binding, KINOMEscan | – | 100 nM | lower = stronger binding | percent of control | 95% |
| Cc1cc(OCCOCCn2ccnc2)cc(C(C)C)c1 | – | locomotor activity in dark | zebrafish larvae, 7 dpf | 10 µM, minute 1, dark phase | – | larval motion | 1.8 ± 0.9 pixels/frame |
| Cc1ncsc1-c1ccc(C(C)NC(=O)C2CC(O)CN2C(=O)C(NC(=O)CCCCCCCCCCN2CCCC(Nc3ncc(Cl)c(Nc4ccccc4S(=O)(=O)C(C)C)n3)C2)C(C)(C)C)cc1 (centres unmarked) | 22Rv1 | RNA-seq, measured: ZNF41 mRNA | – | concentration not given | reference: DMSO | log2 fold change | -2.38 |
| CCc1cc(OCCOCCN(C)C)ccc1Cl | – | locomotor activity in dark | zebrafish larvae, 7 dpf | 10 µM, minute 1, dark phase | – | larval motion | 4.5 ± 1.8 pixels/frame |
| c1ccc(-c2n[nH]cc2-c2ccnc3ccccc23)nc1 | CMK2 (Candida albicans) | kinase binding, MIB/MS competition | Candida albicans lysate | 10 µM | reference: DMSO | log2 fold change | -0.11 |
| Nc1ncc(-c2cc(-c3cnn(CC(F)(F)F)c3)ncc2F)nc1C(=O)NC1CNCC(F)C1 (centres unmarked) | ABL1-phosphorylated | KINOMEscan competition binding | – | 1 µM | reference: DMSO control | remaining binding | 83% |
| Cc1ccc(C)c(OCC(O)CN2CCN(c3cc(Cl)ccc3C)CC2)c1 (centres unmarked) | – | – | zebrafish larvae, 7 dpf | 10 µM, minute 6 | – | larval motion | 0.5 ± 0.3 pixels/frame |
| CN1CCCNC(=O)c2cccc(c2)C(=O)NCCCN(C)CCCNc2cccc3c2C(=O)c2cccc(c2C3=O)NCCC1 | SAS | RNA-seq, measured: UBAC2-AS1 mRNA | – | 1 µM, 6 h | reference: untreated cells | log2 fold change | 1.64 |
| COC1CN([C@H]2CC[C@H]([C@@]3(C)Oc4c(Cl)cc(C(=O)NCc5c(SC)cc(C)[nH]c5=O)c(C)c4O3)CC2)C1 | – | RNA-seq, measured: TFPI2 mouse homolog | mouse, HT-1376 xenograft, whole blood | dose not given | reference: vehicle | log2 fold change | 3.05 |
| O=C(CCN1CCN(C/C=C/c2ccccc2)CC1)Nc1ccccc1F | – | locomotor activity in dark | zebrafish larvae, 7 dpf | 10 µM, minute 3, dark phase | – | larval motion | 2.5 ± 1.1 pixels/frame |
| C=CC(=O)N1[C@@H](c2ccc3c(c2)OCO3)c2[nH]c3ccccc3c2C[C@H]1C(=O)N1CCN(C)CC1 | human cyclin E1 N112C-3xFLAG:CDK2 | co-IP with TMT proteomics, measured: KPNB1 | – | concentration not given, Q14974 | reference: wild type DMSO | relative co-enrichment | 101% |
| CN(C)CCOCCOc1ccc(Cl)c(Cl)c1 | – | – | zebrafish larvae, 7 dpf | 10 µM, minute 6 | – | larval motion | 4.3 ± 1.3 pixels/frame |
| CC1=C(Cn2cc(CN3CCC(F)(F)CC3)nn2)C(=O)c2ccccc2C1=O | Schistosoma mansoni | parasite growth | – | 72 h, larva | – | IC50 | 1480 nM |

For quick reference, copied from above:
| SMILES | target or system | assay | system | conditions | how to read | quantity | value |
| --- | --- | --- | --- | --- | --- | --- | --- |
| c1ccc(-c2n[nH]cc2-c2ccnc3ccccc23)nc1 | CMK2 (Candida albicans) | kinase binding, MIB/MS competition | Candida albicans lysate | 10 µM | reference: DMSO | log2 fold change | -0.11 |
